Measured values collected from several papers.
Compare with care: the assays were run in different laboratories. ± marks the error that the study gave.

CC(=O)c1c(C)c2cnc(Nc3ccc(C4CCN(CCS(C)(=O)=O)CC4)cn3)nc2n(C2CCCC2)c1=O
Cmax (human, dose-escalation trial, plasma; oral, 100 mg twice daily, day 1, single dose): 172 ng/mL

Cc1ncc2n1-c1ccc(Cl)cc1C(c1ccccc1F)=NC2
Cmax decrease (human; oral, dose not given, added: omaveloxolone; reference: substrate alone): 34%

N[C@@H](Cc1ccc(O)c(O)c1)C(=O)O
Cmax ratio (human, plasma; oral, carbidopa/levodopa every 3 h, added: opicapone; reference: after over before opicapone): 1.44

Cc1nnc2n1-c1ccc(Cl)cc1C(c1ccccc1)=NC2
Cmax change (human female; dose not given, day 22; reference: day 0): -5%

Cn1nc(NS(C)(=O)=O)c2c(Cl)ccc(-n3c([C@H](Cc4cc(F)cc(F)c4)NC(=O)Cn4nc(C(F)F)c5c4C(F)(F)[C@@H]4C[C@H]54)nc4nc(OCCC(F)(F)F)ccc4c3=O)c21
Cmax reduction (human; oral, dose not given, single dose tablet; reference: powder in bottle): 63%

CC[C@H](C)[C@H](NC(=O)[C@H](CC(C)C)NC(=O)[C@H](Cc1c[nH]c2ccccc12)NC(=O)[C@H](CCC(N)=O)NC(=O)[C@@H](NC(=O)[C@H](Cc1ccccc1)NC(=O)[C@H](C)NC(=O)[C@H](CCCCNC(=O)COCCOCCNC(=O)COCCOCCNC(=O)CC[C@H](NC(=O)CCCCCCCCCCCCCCCCCCC(=O)O)C(=O)O)NC(=O)[C@H](CCC(N)=O)NC(=O)[C@H](C)NC(=O)[C@@H](NC(=O)[C@H](CCCCN)NC(=O)[C@H](CC(=O)O)NC(=O)[C@H](CC(C)C)NC(=O)C(C)(C)NC(=O)[C@@H](NC(=O)[C@H](CO)NC(=O)[C@H](Cc1ccc(O)cc1)NC(=O)[C@H](CC(=O)O)NC(=O)[C@H](CO)NC(=O)[C@@H](NC(=O)[C@H](Cc1ccccc1)NC(=O)[C@@H](NC(=O)CNC(=O)[C@H](CCC(=O)O)NC(=O)C(C)(C)NC(=O)[C@@H](N)Cc1ccc(O)cc1)[C@@H](C)O)[C@@H](C)O)[C@@H](C)CC)[C@@H](C)CC)C(C)C)C(=O)N[C@@H](C)C(=O)NCC(=O)NCC(=O)N1CCC[C@H]1C(=O)N[C@@H](CO)C(=O)N[C@@H](CO)C(=O)NCC(=O)N[C@@H](C)C(=O)N1CCC[C@H]1C(=O)N1CCC[C@H]1C(=O)N1CCC[C@H]1C(=O)N[C@@H](CO)C(N)=O
Cmax slope versus CLcr (human; subcutaneous, 5 mg, Cockcroft-Gault creatinine clearance): -0.59 ng/mL per mL/min

OCc1ncc2n1-c1ccc(Cl)cc1C(c1ccccc1F)=NC2
Cmax (human, plasma; 7.5 mg midazolam, day 12, geometric mean, added: amenamevir 400 mg): 15.9 ng/mL

N.N.O=C([O-])C1(C(=O)[O-])CCC1.[Pt+2]
Cmax (item: unbound platinum; human, plasma ultrafiltrate; intravenous, AUC 3, median, dose level -1): 19000 ng/mL

O[C@H]1CCCN[C@@H]1CCCn1cnc2c(Cl)c(Cl)ccc21
Cmax (healthy humans, plasma; oral, 150 mg single dose): 238 ng/mL

CNC(=O)n1ccc2cc(Oc3ccnc(NC(=O)c4ccc(C5CCN(CCO)CC5)cc4)c3)c(OCCOC)cc21
Cmax reduction (healthy human, plasma; oral, 35 mg, added: high-fat meal; reference: fasted): 33%

NCCCC[C@@H]1NC(=O)[C@@H](Cc2c[nH]c3ccccc23)NC(=O)[C@H](c2ccccc2)NC(=O)[C@@H]2C[C@@H](OC(=O)NCCN)CN2C(=O)[C@H](Cc2ccccc2)NC(=O)[C@H](Cc2ccc(OCc3ccccc3)cc2)NC1=O
Cmax at steady state (radioimmunoassay; human, plasma; subcutaneous, 600 µg twice daily, day 5): 24.3 ± 7.2 ng/mL

Repeated from above:
CC(=O)c1c(C)c2cnc(Nc3ccc(C4CCN(CCS(C)(=O)=O)CC4)cn3)nc2n(C2CCCC2)c1=O
Cmax (human, dose-escalation trial, plasma; oral, 100 mg twice daily, day 1, single dose): 172 ng/mL

Cc1ncc2n1-c1ccc(Cl)cc1C(c1ccccc1F)=NC2
Cmax decrease (human; oral, dose not given, added: omaveloxolone; reference: substrate alone): 34%
